Published values collected from several papers.
Numbered parts are unrelated; each lists some results of a single study.
UniProt P07550, sequence (whole entry, looked up): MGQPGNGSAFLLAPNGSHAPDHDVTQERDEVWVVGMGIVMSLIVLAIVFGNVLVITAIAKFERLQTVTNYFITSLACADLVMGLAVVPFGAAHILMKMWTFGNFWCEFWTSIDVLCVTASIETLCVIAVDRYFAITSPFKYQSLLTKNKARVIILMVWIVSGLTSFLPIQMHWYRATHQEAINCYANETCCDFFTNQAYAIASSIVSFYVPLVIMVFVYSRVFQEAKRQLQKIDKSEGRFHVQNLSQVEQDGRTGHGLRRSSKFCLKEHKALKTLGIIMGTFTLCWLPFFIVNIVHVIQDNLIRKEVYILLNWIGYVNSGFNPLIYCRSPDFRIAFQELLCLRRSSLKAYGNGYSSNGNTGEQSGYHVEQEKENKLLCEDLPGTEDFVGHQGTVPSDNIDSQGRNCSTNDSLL
UniProt P34969, sequence (whole entry, looked up): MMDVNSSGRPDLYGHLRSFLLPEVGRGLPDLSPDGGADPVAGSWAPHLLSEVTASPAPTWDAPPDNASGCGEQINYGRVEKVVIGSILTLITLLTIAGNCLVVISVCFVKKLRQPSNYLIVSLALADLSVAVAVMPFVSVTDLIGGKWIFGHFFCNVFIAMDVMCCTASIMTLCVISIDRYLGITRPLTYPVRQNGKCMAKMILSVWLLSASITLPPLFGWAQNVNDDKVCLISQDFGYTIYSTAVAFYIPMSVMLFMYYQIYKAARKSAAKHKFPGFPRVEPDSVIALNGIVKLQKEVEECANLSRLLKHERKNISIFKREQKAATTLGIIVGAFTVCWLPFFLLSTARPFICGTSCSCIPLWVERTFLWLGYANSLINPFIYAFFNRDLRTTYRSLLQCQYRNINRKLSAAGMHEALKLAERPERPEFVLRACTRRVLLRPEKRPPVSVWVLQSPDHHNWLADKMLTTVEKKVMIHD
UniProt Q99720, sequence (whole entry, looked up): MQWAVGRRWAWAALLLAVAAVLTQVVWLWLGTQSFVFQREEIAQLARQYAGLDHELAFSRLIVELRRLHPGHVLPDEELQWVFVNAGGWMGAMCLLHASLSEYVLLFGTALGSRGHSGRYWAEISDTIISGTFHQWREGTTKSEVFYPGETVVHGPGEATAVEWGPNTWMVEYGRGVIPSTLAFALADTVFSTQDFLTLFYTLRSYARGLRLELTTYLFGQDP
UniProt P08912, sequence (whole entry, looked up): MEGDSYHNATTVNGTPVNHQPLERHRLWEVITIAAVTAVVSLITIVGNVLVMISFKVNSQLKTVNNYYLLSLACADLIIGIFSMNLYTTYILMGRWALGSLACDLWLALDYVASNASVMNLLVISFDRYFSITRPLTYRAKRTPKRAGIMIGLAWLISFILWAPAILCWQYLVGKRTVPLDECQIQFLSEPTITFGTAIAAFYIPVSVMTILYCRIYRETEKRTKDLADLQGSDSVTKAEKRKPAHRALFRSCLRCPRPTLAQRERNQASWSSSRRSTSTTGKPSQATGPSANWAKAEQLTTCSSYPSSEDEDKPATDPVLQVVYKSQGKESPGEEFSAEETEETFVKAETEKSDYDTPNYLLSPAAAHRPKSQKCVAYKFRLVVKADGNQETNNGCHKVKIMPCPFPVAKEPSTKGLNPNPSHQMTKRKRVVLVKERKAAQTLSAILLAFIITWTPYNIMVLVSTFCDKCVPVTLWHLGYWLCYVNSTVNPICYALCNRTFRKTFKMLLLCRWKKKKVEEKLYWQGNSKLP
UniProt P25100, sequence (whole entry, looked up): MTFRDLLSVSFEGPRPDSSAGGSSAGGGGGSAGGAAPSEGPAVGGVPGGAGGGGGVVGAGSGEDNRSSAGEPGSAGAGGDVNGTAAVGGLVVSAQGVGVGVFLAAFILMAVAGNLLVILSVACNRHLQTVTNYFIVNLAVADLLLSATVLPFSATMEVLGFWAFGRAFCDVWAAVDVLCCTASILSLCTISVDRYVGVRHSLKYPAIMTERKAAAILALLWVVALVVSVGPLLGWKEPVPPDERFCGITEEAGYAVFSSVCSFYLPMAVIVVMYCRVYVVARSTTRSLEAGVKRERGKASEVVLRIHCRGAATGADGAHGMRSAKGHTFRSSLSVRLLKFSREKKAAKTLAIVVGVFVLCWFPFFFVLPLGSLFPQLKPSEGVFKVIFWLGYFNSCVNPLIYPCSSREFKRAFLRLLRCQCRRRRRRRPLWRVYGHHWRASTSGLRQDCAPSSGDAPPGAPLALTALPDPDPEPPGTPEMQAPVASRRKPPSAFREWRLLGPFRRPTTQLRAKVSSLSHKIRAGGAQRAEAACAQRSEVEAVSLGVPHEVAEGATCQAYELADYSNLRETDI
UniProt Q5BJF2, sequence (whole entry, looked up): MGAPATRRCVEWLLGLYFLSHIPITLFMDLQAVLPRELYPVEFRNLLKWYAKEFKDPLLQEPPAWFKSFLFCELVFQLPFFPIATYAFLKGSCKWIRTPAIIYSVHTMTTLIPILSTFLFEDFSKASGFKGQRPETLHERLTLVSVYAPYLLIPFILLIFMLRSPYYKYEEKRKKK
UniProt P62344, sequence (whole entry, looked up): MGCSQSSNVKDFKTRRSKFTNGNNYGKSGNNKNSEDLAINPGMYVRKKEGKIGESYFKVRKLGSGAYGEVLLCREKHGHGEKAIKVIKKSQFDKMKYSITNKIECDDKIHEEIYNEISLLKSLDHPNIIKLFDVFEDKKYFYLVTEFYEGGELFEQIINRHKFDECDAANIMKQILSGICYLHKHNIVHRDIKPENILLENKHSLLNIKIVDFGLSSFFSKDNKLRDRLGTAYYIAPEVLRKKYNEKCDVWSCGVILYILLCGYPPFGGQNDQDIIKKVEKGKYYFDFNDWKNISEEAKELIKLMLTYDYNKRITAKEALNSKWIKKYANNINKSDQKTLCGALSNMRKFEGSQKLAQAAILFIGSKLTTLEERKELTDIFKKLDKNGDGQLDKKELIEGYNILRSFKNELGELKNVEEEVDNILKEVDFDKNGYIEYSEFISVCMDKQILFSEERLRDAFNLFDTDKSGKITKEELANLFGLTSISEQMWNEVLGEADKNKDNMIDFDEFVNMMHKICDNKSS
UniProt Q05397, sequence (whole entry, looked up): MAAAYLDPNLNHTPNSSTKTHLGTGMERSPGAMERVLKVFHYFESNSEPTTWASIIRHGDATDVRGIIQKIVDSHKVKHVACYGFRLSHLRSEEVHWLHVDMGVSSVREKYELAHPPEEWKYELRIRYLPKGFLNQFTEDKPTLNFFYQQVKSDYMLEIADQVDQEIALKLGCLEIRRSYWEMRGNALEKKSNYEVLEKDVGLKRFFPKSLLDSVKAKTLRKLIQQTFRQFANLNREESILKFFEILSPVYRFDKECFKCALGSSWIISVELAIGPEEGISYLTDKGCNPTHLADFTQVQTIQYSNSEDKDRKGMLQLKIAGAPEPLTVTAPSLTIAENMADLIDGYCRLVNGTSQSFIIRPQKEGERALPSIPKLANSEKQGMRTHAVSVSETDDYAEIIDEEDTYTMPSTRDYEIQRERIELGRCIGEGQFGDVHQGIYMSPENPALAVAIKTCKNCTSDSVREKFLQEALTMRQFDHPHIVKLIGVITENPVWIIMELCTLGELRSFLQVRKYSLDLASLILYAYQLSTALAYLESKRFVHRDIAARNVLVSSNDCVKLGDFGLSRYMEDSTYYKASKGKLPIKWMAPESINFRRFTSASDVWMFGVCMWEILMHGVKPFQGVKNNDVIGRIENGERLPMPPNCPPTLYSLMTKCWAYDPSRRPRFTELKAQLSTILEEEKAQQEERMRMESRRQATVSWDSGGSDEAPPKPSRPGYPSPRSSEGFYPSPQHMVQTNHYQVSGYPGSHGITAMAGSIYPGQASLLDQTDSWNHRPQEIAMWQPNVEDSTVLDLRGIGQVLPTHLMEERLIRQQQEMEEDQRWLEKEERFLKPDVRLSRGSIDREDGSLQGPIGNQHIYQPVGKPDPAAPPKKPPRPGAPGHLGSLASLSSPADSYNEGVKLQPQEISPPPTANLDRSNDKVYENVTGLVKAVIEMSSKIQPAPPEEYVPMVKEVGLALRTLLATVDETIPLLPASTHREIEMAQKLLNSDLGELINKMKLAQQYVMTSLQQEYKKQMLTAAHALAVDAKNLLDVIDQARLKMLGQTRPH
UniProt P42681, sequence (whole entry, looked up): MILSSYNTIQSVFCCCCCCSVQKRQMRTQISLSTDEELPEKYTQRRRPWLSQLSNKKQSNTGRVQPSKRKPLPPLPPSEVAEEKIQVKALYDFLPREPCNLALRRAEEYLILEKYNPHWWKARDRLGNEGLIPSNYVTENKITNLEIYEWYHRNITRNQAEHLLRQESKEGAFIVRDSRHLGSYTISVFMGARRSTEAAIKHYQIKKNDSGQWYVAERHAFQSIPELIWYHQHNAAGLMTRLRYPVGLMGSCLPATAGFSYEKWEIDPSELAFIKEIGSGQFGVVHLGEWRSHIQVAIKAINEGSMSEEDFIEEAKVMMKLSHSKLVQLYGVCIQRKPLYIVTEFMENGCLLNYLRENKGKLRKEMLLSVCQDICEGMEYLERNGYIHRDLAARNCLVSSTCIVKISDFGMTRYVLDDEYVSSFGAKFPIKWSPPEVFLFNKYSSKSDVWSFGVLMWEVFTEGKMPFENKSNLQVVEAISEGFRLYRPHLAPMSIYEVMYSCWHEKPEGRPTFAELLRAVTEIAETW

Study 1 — cell line: A-375; tested at: 100 µM; time: 36 h
Structure (SMILES) | viability
CCN1CCN(c2cc3c(cc2F)c(=O)c(C(=O)O)cn3C2CC2)CC1 | 97.9%
CC(C)[C@H]1CC[C@H](C(=O)N[C@H](Cc2ccccc2)C(=O)O)CC1 | 102%
Cc1ccccc1N1C(=O)c2cc(S(N)(=O)=O)c(Cl)cc2NC1C (stereo not shown) | 113%
CC(=O)Oc1cc(C(C)C)c(OCCN(C)C)cc1C | 109%
CCOc1ccc(NC(C)=O)cc1 | 109%
Nc1ccc(C(=O)O)c(O)c1 | 127%
O=c1c(-c2ccc(O)cc2)coc2c([C@@H]3O[C@H](CO)[C@@H](O)[C@H](O)[C@H]3O)c(O)ccc12 | 114%
Cc1onc(-c2c(Cl)cccc2Cl)c1C(=O)N[C@@H]1C(=O)N2[C@@H]1SC(C)(C)[C@@H]2C(=O)O | 114%

Study 2 — effect on: enzyme activity; action: inhibitor; tested at: 0.5 µM; reference: control
Target: Calcium/calmodulin-dependent protein kinase type 1D (CAMK1D, Homo sapiens, UniProt Q8IU85)
UniProt Q8IU85, sequence (whole entry, looked up): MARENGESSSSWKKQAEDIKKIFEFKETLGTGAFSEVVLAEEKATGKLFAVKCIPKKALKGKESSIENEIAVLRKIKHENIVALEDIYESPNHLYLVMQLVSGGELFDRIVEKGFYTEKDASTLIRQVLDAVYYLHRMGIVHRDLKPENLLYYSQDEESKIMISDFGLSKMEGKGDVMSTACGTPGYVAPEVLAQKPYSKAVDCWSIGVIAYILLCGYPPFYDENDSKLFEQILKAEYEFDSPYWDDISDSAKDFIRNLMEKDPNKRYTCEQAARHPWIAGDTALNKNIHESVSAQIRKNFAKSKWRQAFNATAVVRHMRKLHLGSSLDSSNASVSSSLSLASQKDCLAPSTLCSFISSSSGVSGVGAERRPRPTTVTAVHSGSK
SMILES | remaining activity
Cc1ccc(Nc2nccc(N(C)c3ccc4c(C)n(C)nc4c3)n2)cc1S(N)(=O)=O | 91.5%
Cn1c2ccccc2c2c3c(c4c5ccccc5n(CCC#N)c4c21)CNC3=O | 82.4%
CN(C)c1ccc(C=C2C(=O)Nc3ccccc32)cc1 | 98.8%
COc1cc2nccc(Oc3ccc(NC(=S)NC(=O)c4ccccc4C)cc3)c2cc1OC | 72.5%
Oc1ccc(-c2nc(-c3ccncc3)c(-c3ccc(F)cc3)[nH]2)cc1 | 102%
O=C(O)c1ccc2c3c1cccc3c(=O)n1c3ccccc3nc21 | 100%
Nc1ncnc2n[nH]c(Nc3ccc(F)cc3)c12 | 130%
O=C1NC(=O)C(c2cn(CCCn3ccnc3)c3ccccc23)=C1Nc1ccccc1 | 97.4%
Nc1[nH]nc2nc3ccccc3nc12 | 98.3%
O=c1c2ccccc2[nH]c(=S)n1CCN1CCC(=C(c2ccc(F)cc2)c2ccc(F)cc2)CC1 | 96.8%
COc1ccc(CNC(=O)Nc2ncc([N+](=O)[O-])s2)cc1 | 112%
O=C(Nc1cccc(Nc2cc(Nc3cccc(C(F)(F)F)c3)ncn2)c1)C1CC1 | 100%
Cc1ccc(NC(=O)c2ccc(CN3CCN(C)CC3)cc2)cc1Nc1nc(-c2cccnc2)cs1 | 110%
NCCNc1ncc(C(N)=O)c(Nc2cccc(C(F)(F)F)c2)n1 | 61.1%
CCOC(=O)c1c(C)[nH]c(/C=C2\C(=O)Nc3ccccc32)c1C | 93.1%

Study 3 — tested at: 1 µM
SMILES: CN1CCN(C(=O)c2ccc(NC(=O)Nc3ccc(N(C)c4ccnc(Nc5ccc(CS(C)(=O)=O)cc5)n4)cc3)cc2)CC1
target | assay | conditions | scale | remaining binding [%]
PIP5K1C (Homo sapiens, UniProt O60331) | competitive binding panel |  | reference: vehicle | 97
CDPK1 (Plasmodium falciparum, UniProt P62344) | competitive binding, scanMAX | Plasmodium falciparum CDPK1, 1000 nM |  | 71
SIK2 (Homo sapiens, UniProt Q9H0K1) | competitive binding panel |  | reference: vehicle | 56
TXK (Homo sapiens, UniProt P42681) | competitive binding panel |  | reference: vehicle | 15
PTK2 (Homo sapiens, UniProt Q05397) | competitive binding | FAK |  | 36
EGFR (Homo sapiens, UniProt P00533, del746-750) | competitive binding panel |  | reference: vehicle | 87

Study 4 — effect on: ligand displacement; tested at: 10 µM
Compound: O=C(NCc1ncc(C(F)(F)F)cc1Cl)c1ccc2c(c1)C1(CCS(=O)(=O)CC1)[C@@H](C1CC1)N2S(=O)(=O)c1ccc(F)cc1
target | inhibition [%]
CHRM5 (Homo sapiens, UniProt P08912) | -1.92
SIGMAR1 (Homo sapiens, UniProt Q99720) | 37.6
TMEM97 (Homo sapiens, UniProt Q5BJF2) | 52.7
ADRA1D (Homo sapiens, UniProt P25100) | -3.69
CHRM2 (Homo sapiens, UniProt P08172) | 12.5
ADRB2 (Homo sapiens, UniProt P07550) | -16.2
ADRA1B (Homo sapiens, UniProt P35368) | -8.58
HTR7 (Homo sapiens, UniProt P34969) | -4.83
